Published values pooled from the literature.
A part holds a random share of what one study measured. “And” joins repeats or separate records; there may be more than shown.
Sequence of UniProt P49137 (whole entry, looked up): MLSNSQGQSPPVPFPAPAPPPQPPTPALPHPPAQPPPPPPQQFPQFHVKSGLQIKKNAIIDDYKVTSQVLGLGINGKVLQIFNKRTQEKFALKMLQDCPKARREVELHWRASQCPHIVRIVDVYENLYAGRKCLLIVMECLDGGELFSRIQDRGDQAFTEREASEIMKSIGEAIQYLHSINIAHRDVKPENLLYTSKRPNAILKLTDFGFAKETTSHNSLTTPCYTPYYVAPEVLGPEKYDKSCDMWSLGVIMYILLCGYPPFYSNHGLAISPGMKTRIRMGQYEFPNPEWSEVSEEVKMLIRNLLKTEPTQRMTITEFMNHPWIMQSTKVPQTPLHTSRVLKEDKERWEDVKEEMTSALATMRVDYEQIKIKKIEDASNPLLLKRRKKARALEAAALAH
Sequence of UniProt Q5XXA6 (whole entry, unmodified, looked up): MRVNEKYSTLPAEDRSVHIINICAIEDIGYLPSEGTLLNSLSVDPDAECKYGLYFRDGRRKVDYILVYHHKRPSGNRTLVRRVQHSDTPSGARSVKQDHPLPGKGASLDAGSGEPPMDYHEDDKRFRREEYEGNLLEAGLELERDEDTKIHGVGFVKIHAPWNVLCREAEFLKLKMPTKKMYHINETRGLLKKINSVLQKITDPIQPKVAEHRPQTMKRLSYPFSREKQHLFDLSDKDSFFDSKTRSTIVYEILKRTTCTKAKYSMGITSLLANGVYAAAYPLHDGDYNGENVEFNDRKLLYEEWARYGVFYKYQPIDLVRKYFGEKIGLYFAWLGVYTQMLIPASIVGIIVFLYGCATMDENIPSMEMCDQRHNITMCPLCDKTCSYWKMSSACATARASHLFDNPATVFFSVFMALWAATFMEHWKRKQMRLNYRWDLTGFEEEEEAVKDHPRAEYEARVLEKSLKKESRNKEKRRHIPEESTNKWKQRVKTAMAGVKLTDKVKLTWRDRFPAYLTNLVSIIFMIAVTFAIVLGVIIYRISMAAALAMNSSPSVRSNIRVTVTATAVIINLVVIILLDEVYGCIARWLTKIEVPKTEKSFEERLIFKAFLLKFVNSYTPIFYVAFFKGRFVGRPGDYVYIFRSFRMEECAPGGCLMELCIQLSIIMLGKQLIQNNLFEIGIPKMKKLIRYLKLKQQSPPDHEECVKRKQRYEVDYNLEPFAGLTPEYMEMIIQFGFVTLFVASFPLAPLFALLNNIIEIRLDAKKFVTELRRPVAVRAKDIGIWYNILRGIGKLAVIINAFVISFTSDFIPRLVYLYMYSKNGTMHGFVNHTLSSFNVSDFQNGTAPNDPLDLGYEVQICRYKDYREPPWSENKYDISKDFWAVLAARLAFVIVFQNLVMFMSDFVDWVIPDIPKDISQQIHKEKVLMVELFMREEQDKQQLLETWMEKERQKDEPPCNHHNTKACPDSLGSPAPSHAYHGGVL

Sample 1
Structure (SMILES): CC(C)(C(=O)O)[C@H](NC(=O)Cc1cccc(I)c1)c1ccc2oc(=O)[nH]c2c1
Technique: Incucyte 3D growth
Tested at: 30 µM
Reading: higher = more growth
cell line	setting	spheroid area
MEL-JUSO	18.52 h	9.07e+06 a.u. and 1.1e+07 a.u. and 7.84e+06 a.u. and 8.9e+06 a.u. and 1.04e+07 a.u.
KP-4	180 h	2.6e+07 a.u. and 3.67e+07 a.u. and 2.59e+07 a.u. and 1.74e+07 a.u. and 3.11e+07 a.u. and 2.64e+07 a.u.
NCI-H358	264 h	1.25e+07 a.u. and 1.02e+07 a.u. and 9.66e+06 a.u.
IPC-298	102 h	2.71e+07 a.u. and 2.07e+07 a.u. and 2.49e+07 a.u. and 2.97e+07 a.u. and 3.31e+07 a.u. and 2.77e+07 a.u.
PC-9	78 h	5.83e+08 a.u. and 5.97e+08 a.u. and 5.94e+08 a.u. and 5.93e+08 a.u. and 5.71e+08 a.u.
NCI-H358	174 h	9.36e+06 a.u. and 6.39e+06 a.u. and 6.06e+06 a.u. and 6.18e+06 a.u. and 8.16e+06 a.u. and 6.19e+06 a.u.
NCI-H1437	192 h	3.35e+07 a.u. and 5.37e+07 a.u. and 4.59e+07 a.u. and 7.89e+07 a.u. and 7.37e+07 a.u. and 3.91e+07 a.u.
A375	12 h	4.55e+06 a.u. and 5.83e+06 a.u. and 8.39e+06 a.u. and 9.57e+06 a.u. and 8.83e+06 a.u. and 1.2e+07 a.u.

Sample 2
Matrix: 1,9-decadiene/PBS
pH: 7.4
Structure (SMILES)	logD
CC(C)C[C@@H]1NC(=O)[C@H](C)NC(=O)[C@H](CC(C)C)NC(=O)[C@@H](CC(C)C)NC(=O)[C@H](CC(C)C)NC(=O)[C@@H](C)NC(=O)[C@@H](CC(C)C)NC1=O	-0.536
CC(C)C[C@@H]1NC(=O)[C@H](C)NC(=O)[C@@H](CC(C)C)NC(=O)[C@H](C)NC(=O)[C@H](CC(C)C)NC(=O)[C@H](CC(C)C)NC(=O)[C@H](C)NC1=O	-1.3
CC(C)C[C@@H]1NC(=O)[C@H](Cc2cscn2)NC(=O)[C@H](CCC(=O)N2CCCC2)NC(=O)[C@H](CCC(=O)N2CCCC2)NC(=O)[C@@H](Cc2cscn2)NC(=O)[C@H](CC(C)C)NC(=O)[C@@H](CC(C)C)NC1=O	-3.22
CC(C)C[C@@H]1NC(=O)[C@H](Cc2cscn2)NC(=O)[C@H](CCC(=O)N2CCCC2)NC(=O)[C@H](C)NC(=O)[C@@H](CCC(=O)N2CCCC2)NC(=O)[C@H](CC(C)C)NC(=O)[C@@H](CC(C)C)NC1=O	-2.89
CC(C)C[C@@H]1NC(=O)[C@H](C(C)C)NC(=O)[C@H](CCC(=O)N2CCCC2)NC(=O)[C@H](CCC(=O)N2CCCC2)NC(=O)[C@@H](Cc2cscn2)NC(=O)[C@H](CC(C)C)NC(=O)[C@@H](CC(C)C)NC1=O	-2.58
CC(C)C[C@@H]1NC(=O)[C@H](CC(C)C)NC(=O)[C@H](CC(C)C)NC(=O)[C@H](C(C)C)NC(=O)[C@H](C)NC(=O)[C@H](CCC(=O)N2CCCC2)NC(=O)[C@H](C)NC1=O	-2.15
CC(C)C[C@@H]1NC(=O)[C@H](CC(C)C)NC(=O)[C@H](CC(C)C)NC(=O)[C@H](CC(C)C)NC(=O)[C@@H](Cc2cscn2)NC(=O)[C@@H](CC(C)C)NC(=O)[C@H](C)NC1=O	0.385
CC(C)C[C@@H]1NC(=O)[C@H](C)NC(=O)[C@H](Cc2cscn2)NC(=O)[C@@H](CC(C)C)NC(=O)[C@H](C(C)C)NC(=O)[C@H](CC(C)C)NC(=O)[C@@H](CC(C)C)NC1=O	-0.573

Mixed results
DCAF1: DDB1- and CUL4-associated factor 1 (DCAF1, Homo sapiens, UniProt Q9Y4B6)
Sequence of UniProt Q9Y4B6 (whole entry, looked up): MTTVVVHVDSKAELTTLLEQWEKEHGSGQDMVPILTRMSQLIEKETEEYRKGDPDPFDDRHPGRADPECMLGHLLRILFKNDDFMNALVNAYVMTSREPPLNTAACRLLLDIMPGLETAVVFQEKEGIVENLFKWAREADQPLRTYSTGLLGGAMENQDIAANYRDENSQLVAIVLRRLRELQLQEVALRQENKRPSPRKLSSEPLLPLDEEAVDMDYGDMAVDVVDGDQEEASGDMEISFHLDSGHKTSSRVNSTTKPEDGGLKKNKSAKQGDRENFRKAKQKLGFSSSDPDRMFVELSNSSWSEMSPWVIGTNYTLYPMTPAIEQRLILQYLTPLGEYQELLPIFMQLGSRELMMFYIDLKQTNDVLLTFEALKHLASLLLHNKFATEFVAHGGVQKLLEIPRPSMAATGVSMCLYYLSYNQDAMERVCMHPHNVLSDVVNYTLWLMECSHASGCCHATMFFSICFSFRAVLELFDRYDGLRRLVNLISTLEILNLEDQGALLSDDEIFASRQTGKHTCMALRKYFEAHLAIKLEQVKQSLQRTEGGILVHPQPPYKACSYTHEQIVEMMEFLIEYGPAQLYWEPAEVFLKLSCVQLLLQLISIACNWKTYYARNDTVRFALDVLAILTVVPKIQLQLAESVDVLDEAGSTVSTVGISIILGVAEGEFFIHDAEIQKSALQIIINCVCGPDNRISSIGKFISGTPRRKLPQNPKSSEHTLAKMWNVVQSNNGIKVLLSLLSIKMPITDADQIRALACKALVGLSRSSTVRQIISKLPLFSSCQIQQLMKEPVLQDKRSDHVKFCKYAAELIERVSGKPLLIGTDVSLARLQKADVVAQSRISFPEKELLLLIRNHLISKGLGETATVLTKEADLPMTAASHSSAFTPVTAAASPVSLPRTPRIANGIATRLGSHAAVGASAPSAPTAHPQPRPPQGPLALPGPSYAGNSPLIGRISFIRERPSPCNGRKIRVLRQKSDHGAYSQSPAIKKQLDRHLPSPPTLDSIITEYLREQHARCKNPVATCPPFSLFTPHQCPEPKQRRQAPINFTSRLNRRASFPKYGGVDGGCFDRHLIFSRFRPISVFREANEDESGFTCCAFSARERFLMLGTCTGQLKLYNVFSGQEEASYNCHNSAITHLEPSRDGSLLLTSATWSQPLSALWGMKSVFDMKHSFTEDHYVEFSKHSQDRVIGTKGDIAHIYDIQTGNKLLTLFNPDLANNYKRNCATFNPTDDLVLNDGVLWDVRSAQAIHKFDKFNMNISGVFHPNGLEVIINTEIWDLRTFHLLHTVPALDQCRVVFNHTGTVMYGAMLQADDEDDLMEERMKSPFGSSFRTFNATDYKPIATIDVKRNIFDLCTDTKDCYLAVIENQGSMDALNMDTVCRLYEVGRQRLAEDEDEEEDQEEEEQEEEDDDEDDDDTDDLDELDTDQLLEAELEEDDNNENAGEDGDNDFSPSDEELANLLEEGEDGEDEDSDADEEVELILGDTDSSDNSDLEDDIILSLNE
SMILES	target	test	setting	how to read	quantity	result
C[C@@H]1CN(c2ccc(-c3cc(C(=O)NCCOCCOCCOCCOCCNC(=O)/C=C/c4[nH]cc(C(=O)N[C@@H](CC(N)=O)c5ccc(F)c(Cl)c5)c4-c4ccc(Cl)cc4F)ccc3F)cc2NC(=O)c2c[nH]c(=O)cc2C(F)(F)F)C[C@H](C)N1C	DCAF1	differential scanning fluorimetry	concentration not given, unit not given	reference: DCAF1 alone	ΔTm	7.56 and 7.47 and 7.37 and 7.42 and 7.29 and 7.15 and 8.36 and 7.48
C=CCc1ccc(O)c(-c2cc(CC=C)ccc2O)c1	Anoctamin-1 (ANO1, Homo sapiens, UniProt Q5XXA6, del476-501)	chloride current, inhibitor, whole-cell voltage clamp	wild type at -100 mV, with: 3 µM honokiol	reference: with over without honokiol	potency fold increase	1.86
N/C(=N\[N+](=O)[O-])N/N=C\c1ccc(-c2cccc([N+](=O)[O-])c2)o1	MAPKAPK2 (Homo sapiens, UniProt P49137)	enzyme activity, inhibitor	0.5 µM	reference: control	remaining activity	96.3%
C[C@@H]1CN(c2ccc(-c3cc(C(=O)NCCOCCOCCOCCOCCOCCOCCNC(=O)/C=C/c4[nH]cc(C(=O)N[C@@H](CC(N)=O)c5ccc(F)c(Cl)c5)c4-c4ccc(Cl)cc4F)ccc3F)cc2NC(=O)c2ccc(F)cc2C(F)(F)F)C[C@H](C)N1C	DCAF1	differential scanning fluorimetry	concentration not given, unit not given	reference: DCAF1 alone	ΔTm	5.3 and 5.52 and 5.48 and 5.34 and 5.39 and 5.07 and 5.13

For quick reference, copied from above (mixed results):
SMILES	target	test	setting	how to read	quantity	result
C[C@@H]1CN(c2ccc(-c3cc(C(=O)NCCOCCOCCOCCOCCNC(=O)/C=C/c4[nH]cc(C(=O)N[C@@H](CC(N)=O)c5ccc(F)c(Cl)c5)c4-c4ccc(Cl)cc4F)ccc3F)cc2NC(=O)c2c[nH]c(=O)cc2C(F)(F)F)C[C@H](C)N1C	DCAF1	differential scanning fluorimetry	concentration not given, unit not given	reference: DCAF1 alone	ΔTm	7.56 and 7.47 and 7.37 and 7.42 and 7.29 and 7.15 and 8.36 and 7.48
C=CCc1ccc(O)c(-c2cc(CC=C)ccc2O)c1	Anoctamin-1 (ANO1, Homo sapiens, UniProt Q5XXA6, del476-501)	chloride current, inhibitor, whole-cell voltage clamp	wild type at -100 mV, with: 3 µM honokiol	reference: with over without honokiol	potency fold increase	1.86
C[C@@H]1CN(c2ccc(-c3cc(C(=O)NCCOCCOCCOCCOCCOCCOCCNC(=O)/C=C/c4[nH]cc(C(=O)N[C@@H](CC(N)=O)c5ccc(F)c(Cl)c5)c4-c4ccc(Cl)cc4F)ccc3F)cc2NC(=O)c2ccc(F)cc2C(F)(F)F)C[C@H](C)N1C	DCAF1	differential scanning fluorimetry	concentration not given, unit not given	reference: DCAF1 alone	ΔTm	5.3 and 5.52 and 5.48 and 5.34 and 5.39 and 5.07 and 5.13
